Assay results from different studies.
Every numbered part comes from another study and shows a few of its results, in no order.

Set 1
Substance: PhoQ, residues 284 288 289 292 302 303 SIHLQL
Method: Sort-seq
Measured: YFP reporter
Sample: E. coli
Setting: PhoQ-PhoP variant library
With: 10 µM Mg2+
Baseline: high Mg2+ state
Direction: higher = stronger signaling
| target | fold induction |
| --- | --- |
| PhoP, residues 12 14 15 18 19 SFCSL (Escherichia coli, UniProt P23836) | 6.97 |
| PhoP, residues 12 14 15 18 19 AYFRS (Escherichia coli, UniProt P23836) | 12.8 |
| PhoP, residues 12 14 15 18 19 HHYTI (Escherichia coli, UniProt P23836) | 13.4 |

Set 2
Target: Histone acetyltransferase KAT6A, both winged helices, GST fusion (KAT6A, Homo sapiens, UniProt Q92794, residues 1-181)
Method: protein binding microarray
Form: double-stranded DNA, one strand shown
Sample: in vitro
Concentration: not given
Setting: 8-mer, flanks averaged, mean of 2 arrays, mostly near background
Baseline: not given
Direction: higher = stronger binding
Residues (chain): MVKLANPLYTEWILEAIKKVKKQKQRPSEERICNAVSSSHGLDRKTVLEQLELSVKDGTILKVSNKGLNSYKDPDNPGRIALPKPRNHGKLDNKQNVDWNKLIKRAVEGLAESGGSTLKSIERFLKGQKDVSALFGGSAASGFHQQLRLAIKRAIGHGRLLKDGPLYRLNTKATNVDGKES
| Strand | E-score |
| --- | --- |
| TATGGGAA | -0.00141 |
| CCTATGTA | -0.189 |
| CGTTTGGC | 0.122 |
| TATTTAAA | 0.0204 |
| GGAGGCCA | -0.218 |
| CCAGAGCC | -0.0873 |
| ATCATCCG | 0.0709 |
| CGGGTTGC | 0.235 |
| AGGAGATC | -0.151 |
| CCCCACGA | -0.208 |

Set 3
Target: RNA binding protein fox-1 homolog 2, RRM domain, GST-SBP tag (RBFOX2, Homo sapiens, UniProt O43251-10, residues 100-194)
Method: RNA Bind-n-Seq
Form: RNA
Sample: in vitro
Concentration: 365 nM
Setting: natural RNA segment, single round, ends assumed
Baseline: no-protein control
Direction: higher = stronger binding
Shared flanks, not repeated: GGGAGUUCUACAGUCCGACGAUC … UGGAAUUCUCGGGUGCCAA
Residues (chain): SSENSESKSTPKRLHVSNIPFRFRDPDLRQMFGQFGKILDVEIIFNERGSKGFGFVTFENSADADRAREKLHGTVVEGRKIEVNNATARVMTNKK
| Strand | RBNS enrichment (R) |
| --- | --- |
| CAUUUACAUUUUUAGGUUAUUACAGAAAAUUCUCUUAAUUUAUUAUAGUCAAGUGUAUUAUGUAAUCUCUAUUUAGAACAGUUUCCCAAAGGAAUGUGAUUGGAUUUACU | 0.873 |
| UUUCUCAUGUACAGGGGCAGCGUGUCUGUGUGUGGAGGGUCCGGGUUACAAGGUAAGCUAGGUUGCCCACUUGCCCACUCGUCCUCUCCCUGCUGCAGUCUCUUGGGUCU | 0.32 |
| UUCUCCUAUCUCCUAAAGUGUCGGGGAAAGUUACUGGCCUCUCUCAACAGGGCUCACUCUGAGCUCCACAUCCGCCUCCUUCAAGCAAAGACUUAAAAAGACUGCCCUUG | 0.17 |
| GAAAGAGUUCCUCACAUACAGGACUUUUAGCAGUGCCGGCUCCCCCACCUCCUGCAGCAGCAGCAGUACAAGGGACUGGCUAGGAUGGAGUCAGGCAGCUCACACUGGAC | 0.364 |
| UGUAAUGACCAGUGUUUAGAGUCCCUGUUGCUGAUACCUUUGAGUGAUUGACACCUGCUGCUUUUGAGGAGCUCGGCUGCAGUGAUCACUGGCGUGUGGCACUCUGGCUA | 0.753 |
| GCCCUCCAUCCACCUGCCUUAACUAAUUGGGGCUGGAGUUGGUCAUUUUUGUACACCCACAGUGGUACCUUUUACAGUCAGGUUUGGAUACUUUGCAGCUCAUCCAAAGA | 0.379 |
| AGGGACAGAGGUGAAAUUUUGAGUGACUUGAGUCUCUUGCAGUCCCUGAUUACACAGAACCUUUCUGGGCUACUUGGAGCAUCACGAAUAGUCUUUCCUGUACUUACCAG | 0.344 |
| AUGCUGGUAAAGAAAAGGGAUUCAACUGUCUCUUUUCCAAAUAAAAAAAAAGUCAAAAUUUCAAGUGAGAGAAAAUGACACCCCCAACUUUUACCAGUUCUUCCUCACCU | 0.343 |

Set 4
Target: PABPC1L2, full length, GST fusion (mouse, UniProt A0ABA7IW68)
Method: RNAcompete
Form: RNA
Sample: in vitro
Concentration: 20 nM
Setting: 7-mer, probes averaged, single round
Baseline: mean of 7-mers
Direction: higher = stronger binding
Residues (chain): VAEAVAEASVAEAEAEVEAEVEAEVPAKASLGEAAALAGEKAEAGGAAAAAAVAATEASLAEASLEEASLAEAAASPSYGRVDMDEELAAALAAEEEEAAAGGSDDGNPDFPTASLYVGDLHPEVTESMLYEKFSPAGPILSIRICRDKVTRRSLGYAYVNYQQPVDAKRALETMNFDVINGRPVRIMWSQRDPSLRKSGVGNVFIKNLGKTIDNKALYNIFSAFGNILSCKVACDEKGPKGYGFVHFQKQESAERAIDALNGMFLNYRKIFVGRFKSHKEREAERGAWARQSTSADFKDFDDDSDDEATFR
| Strand | 7-mer Z-score |
| --- | --- |
| GACAUUU | -0.253 |
| CACUGCA | -0.0772 |
| UCGAAUG | -0.231 |
| CGUGUGC | -0.182 |
| CGCACGU | -0.253 |
| CGGCCAG | -0.0699 |
| GCAAGUG | -0.0935 |
| CUCCGCU | -0.342 |
| CUUAUAG | -0.168 |
| GAUAGAG | -0.0953 |
| CCAUGGG | -0.148 |
| ACGCCAU | -0.0826 |
| AAGAGUC | 0.287 |
| AAUGUUG | -0.0554 |
| CUGCUUU | -0.369 |

Repeated from above (set 4):
| Strand | 7-mer Z-score |
| --- | --- |
| CGCACGU | -0.253 |
| CGGCCAG | -0.0699 |
| GCAAGUG | -0.0935 |
| CUCCGCU | -0.342 |
| CUUAUAG | -0.168 |
